Results gathered from unrelated publications.
Every numbered part comes from another study and shows a few of its results, in no order.

Series 1
Target: Sal-like protein 4, full length isoform B (SALL4, Homo sapiens, UniProt Q9UJQ4-2, residues 1-616)
Technique: universal PBM
Molecule type: double-stranded DNA, one strand shown
Matrix: in vitro
Concentration: not given
Setting: 8-mer, flanks averaged, mean of replicates
Direction: higher = stronger binding
Oligonucleotide	E-score
CAACAGTC	0.0148
CAATATCC	0.147
GACCGTCC	-0.302
CCCACGGA	-0.187
CATTAGGG	0.00324
ACATTCAG	0.083
ACACGCGT	-0.0578
GTGAAGCA	-0.0337
GAAAAAGA	0.0939
ACCGACTG	-0.328
ACGTGTCC	-0.187
GGTCCTCA	-0.115
TAAACAGA	0.191
AGCGGTTA	0.0957
CCCGTGAC	-0.208
GGTCTCTA	-0.0768
AACGAATG	-0.00097
AATCTTAA	0.13
CCCATTAG	-0.248
GCACCGTA	-0.112
ATAATCAC	0.302
GACGGCCA	-0.215
AACGGGAT	-0.15
CTTGAGGC	-0.241
TACAGAAA	0.208

Series 2
Target: Hepatocyte nuclear factor 3-alpha (Foxa1, Mus musculus, UniProt P35582, residues 1-468, full length assumed)
UniProt P35582, sequence (whole entry, looked up): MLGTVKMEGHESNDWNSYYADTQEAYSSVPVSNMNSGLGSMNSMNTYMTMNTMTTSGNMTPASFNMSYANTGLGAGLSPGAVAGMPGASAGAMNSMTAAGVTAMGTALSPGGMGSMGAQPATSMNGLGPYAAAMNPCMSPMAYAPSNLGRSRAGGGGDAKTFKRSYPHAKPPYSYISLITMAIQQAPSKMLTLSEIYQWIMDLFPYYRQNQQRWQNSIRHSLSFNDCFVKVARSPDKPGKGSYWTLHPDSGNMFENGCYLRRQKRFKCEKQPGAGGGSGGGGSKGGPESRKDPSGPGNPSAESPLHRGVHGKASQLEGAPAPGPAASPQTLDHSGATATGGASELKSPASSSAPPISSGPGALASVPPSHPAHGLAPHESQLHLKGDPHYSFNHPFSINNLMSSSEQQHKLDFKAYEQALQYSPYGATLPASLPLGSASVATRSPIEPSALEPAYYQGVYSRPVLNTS
Technique: EMSA with sequencing
Molecule type: double-stranded DNA, one strand shown
Matrix: in vitro
Concentration: 10 and 20 nM
Setting: whole designed probe, mean of two concentrations, ends assumed
Relative to: negative control set to 0
Direction: higher = stronger binding
Oligonucleotide	normalised bound fraction [ratio]
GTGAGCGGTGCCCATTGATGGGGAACGAGCTGCTTGCAATTGAGTTGTATGTATGCTTCCACTTAATACGTCCTGCCGAGCCTGTAAGCCAACAGGACACTTCCGGCATCTGCCCTCTGTGTTTACCTACTCTCTTTTTATGTCTTATTCCCAGAATGACTGGGGACCAAAGGAATCCTTTGCAGGAGTTTTCTCCAGACAGACAGTTCCACATGCTAGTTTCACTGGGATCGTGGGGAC	0.238
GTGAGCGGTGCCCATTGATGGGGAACTGAGCGATGGGTCGAGTTGGCTTACTAAATTGTGGTAGAAATGAGTGTTATAGCTGAATTCACTTGGTAATTAGCACTTGCATTTACAGATTATGTAATCTAGCAATAGATTCAGGTTTGCACAGACTTAGTGATAGAATCCGGTTGCTAGACTCTTAGCCCAACAGGCTTTCCATCACACAATGAGAACAAGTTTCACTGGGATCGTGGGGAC	-0.0313
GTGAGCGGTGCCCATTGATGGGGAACTCAACTGTGCCATGTTAGCAGGAAAGCTGCCAGACACAATAAGTACACAAACAGCGTGGCTGTGTTCCAAAAAAACTTTATTTACACACACTTTGTTTACACACATAGGTGGCAAGCTGTAATTTTTTTATGTAATTTATGGTATTTTGCCATAGTTTGCTGACTCTTGATACAAATATGGAGACTTTTAAAGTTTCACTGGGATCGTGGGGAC	0.513
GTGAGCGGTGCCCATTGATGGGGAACATCTTCCCCCTCTTCCTTGCCCCACCAGCTCACCTTCCCGGGTATATTGGAGATAGGAAATTAATATAAGCCGGCATTCGTTAACCCTCTTCACGCGCATACTGCCAGAGCAAACAGATCTAACATGGTCCTTTGGCGACGCCAGGCTCCGGGAGAGCAAAGCACCGTGTCAGGGCCATGATCCGGGGTGGCCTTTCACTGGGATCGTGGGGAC	0.165
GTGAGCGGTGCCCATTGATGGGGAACTTTTTTCTGTACAGGGAAAAATAGTGAATATTTCAAAATTGTGAAACAAAGAGTCTCTGTGGCAACTACTCGTTGCATAACATTAGACAATATGCAAACAAATGAGTGTGTCTGTGTTCCAATAAAACTGTATTTACAAAAGCAGAAGGCCACCCATGTGCCAATGTCCAAAGTTTCTCAACCAACCCCTGGTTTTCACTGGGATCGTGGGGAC	0.412
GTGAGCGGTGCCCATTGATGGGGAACCTCATTCCTTGCTTCCGCCAATAATCTGACTAGTAAAGAAGTCACTGCATGCCACAAATTGTCAGTGCTGACTTCCTCAACAAGGAAGTTATTTATTTACTTATTTAAGAGTGACTCAGTATATATGCAAATTCCATCTTGAGAATACCAACTCCTGATGCCAACTGATTGTCAGTCATGGCTACAACAGGAGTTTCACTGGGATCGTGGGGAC	0.441

Series 3
Target: RING finger protein unkempt homolog, zinc fingers 1-6, GST-SBP tag (UNK, Homo sapiens, UniProt Q9C0B0, residues 30-357)
Technique: RNA Bind-n-Seq
Molecule type: RNA
Matrix: in vitro
Concentration: not given
Setting: RNA with constant flanks, human and mouse sites, ends assumed
Relative to: input RNA pool
Direction: higher = stronger binding
Construct (chain): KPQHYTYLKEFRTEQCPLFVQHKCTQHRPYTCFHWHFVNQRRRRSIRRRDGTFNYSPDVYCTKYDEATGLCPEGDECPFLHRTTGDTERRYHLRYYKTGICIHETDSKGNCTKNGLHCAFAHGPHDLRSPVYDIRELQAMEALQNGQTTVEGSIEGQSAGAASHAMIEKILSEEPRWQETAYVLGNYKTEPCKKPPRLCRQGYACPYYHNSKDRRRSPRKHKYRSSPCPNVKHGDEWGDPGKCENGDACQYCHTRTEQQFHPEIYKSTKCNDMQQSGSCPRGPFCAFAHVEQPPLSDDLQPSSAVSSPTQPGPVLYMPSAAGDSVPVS
Oligonucleotide	bound/input enrichment
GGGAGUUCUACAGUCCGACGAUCAGCCAGGGGAAGCCUGGCAGUCCGGAGCCCGAGACAGAGACCGUUUCUUCAGUUCAUGAGAGCCAUGAAAACGAAAGGAUUCCUCGACCACUCAGCCCAACAAAAUUACUGCCUUUCUUGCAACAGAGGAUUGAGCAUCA	0.0937 ratio
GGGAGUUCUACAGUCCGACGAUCAAGAUUGAAGGCUUGGAGGUGCUAAAGAAAGUGAAGUCACUCUGCCUUCGUCAAAACCUAAUUAAAUGCAUUGAAAACCUGGAAGAACUGCAGAGUCUUCGAGAACUGGAUCUCUAUGAUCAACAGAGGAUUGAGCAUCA	0.178 ratio
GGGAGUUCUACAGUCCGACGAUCUUGACUGACUUUGGCUUGUGCACUGGCUUCAGAUGGACACAUGACUCCAAGUACUACCAGAGUGGGGAUCACCCACGGCAAGAUAGCAUGGAUUUCAGUAACGAAUGGGGAGAUCCUUCCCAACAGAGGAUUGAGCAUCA	0.103 ratio
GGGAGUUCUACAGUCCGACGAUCGUGCGUGUGGGUGUGUGCGCGCGUGAGCACACACGCGUGUGUUGGGGGGGGUGGGGGGAUUGGGGUGGACUCAGGGUAUCUUGCCAGAGAUACCUGUUUUGAUGAGUACCUAUUUUGAUGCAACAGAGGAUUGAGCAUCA	0.507 ratio
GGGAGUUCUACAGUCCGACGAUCAAGCCUCCAAAGCGGAAGAAGGCAGACACUGAGGGGAAGUCCCCAUCUCACAGUUCUUCUAAUAGACCUUUCACCCCACCUACCAGCACGGGUGGGUCCAAAUCCCCAGGCAGUUCAGGACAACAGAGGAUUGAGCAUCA	0.241 ratio
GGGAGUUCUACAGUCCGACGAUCGAGAAUAAUAUUCUUGCAAAAAAGAAACCCUAUAAGUGUGAUAAAUGUAGAAAAGCCUUUAUUCAUAGAUCAUCGCUUACUAAACAUGAGAAAACACAUAAAGGAGAGGGAGCUUUCCCUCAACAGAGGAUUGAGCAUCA	0.215 ratio
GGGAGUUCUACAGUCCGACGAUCAGAACAGGUUUCUCUCUGUCCUUGACUCUUGGGUCUGUGGGCCAUGGCAUGAGUGUUUUCUAGUAGUAGAUUGGAGGGAAAGCUUUGUGACACUUAGUACUGUGUUUUUAAGAAGAAAUACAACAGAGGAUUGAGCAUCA	1.72 ratio
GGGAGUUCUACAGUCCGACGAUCAGAACCUUUUCCACACACCUCCUCCUUCCUGUUCUCUUUGAACCAUUCAUCACCUCUGCCUUCCUCCUAUCCCCAGCCCAAUAAAUUAAAACAAUUAACUGAGCAAAUUAAUUAGGCUUCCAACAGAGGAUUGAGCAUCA	1.23 ratio
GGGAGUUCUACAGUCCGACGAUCAUAGUUAUUUAAGGAUUGUUUAUUGAUGAGGUUGGUAAAAUCUAGAAAGGCCAAGGACUUUGUGAAGACUUCAUGUAAGGAAGACUAUAGGUUACCAUUUUAAAAAUAAUGUUCUUGCUUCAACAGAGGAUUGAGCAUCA	2.43 ratio
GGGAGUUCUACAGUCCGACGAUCCUGGCAGUGGAGGCAUGUGUGAAUAUUGCCCAGCUUCUGCCACAGGAGGACCUGGAGGCCUUAGUGAUGCCCACCUUGCGACAGGCUGCUGAGGACAAGUCUUGGCGUGUUCGCUACAUGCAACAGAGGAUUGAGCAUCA	0.0439 ratio
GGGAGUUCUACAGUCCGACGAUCAGUCUCACGAACGUAGGAAAUUCAUUUAGUGGCCCACCUAAUCCUUUAGUGUCUAGAUCUAGUAAGUUUCAGAACUCAUCAGUAGAAGAUGAUGAUGACGUUGUUUUUAUUGAACCUGUACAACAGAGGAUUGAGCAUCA	6.99 ratio

Series 4
Target: RNA binding protein fox-1 homolog 2, RRM domain, GST-SBP tag (RBFOX2, Homo sapiens, UniProt O43251-10, residues 100-194)
Technique: RNA Bind-n-Seq
Molecule type: RNA
Matrix: in vitro
Concentration: 365 nM
Setting: natural RNA segment, single round, ends assumed
Relative to: no-protein control
Direction: higher = stronger binding
Target sequence (chain): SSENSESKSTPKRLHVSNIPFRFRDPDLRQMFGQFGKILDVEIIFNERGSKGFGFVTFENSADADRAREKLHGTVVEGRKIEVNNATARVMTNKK
Oligonucleotide	RBNS enrichment (R)
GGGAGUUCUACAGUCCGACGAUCAGCUGAGGCAGGAGGAUCAUGAAUUCAAAGCCAGCCUGGGAUACAUAGCAAGUUUCAGGGCAGUGUGGGUAUGAGGUUGUGUCUCAAAAACAUUUGAAAGCAUGUUGUGCUGGAAUUCUCGGGUGCCAA	3.89
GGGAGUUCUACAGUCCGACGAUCUGCUGAGAUUUUAUGAUUCCAGGUUCAGGGGUGAGAAGGAUUCUGGUACCUGAUACCUGUUGGAGAUUAUGUGACUGCUGGCAUGUCUUAGAUAUCUUAGUUAUCUUUUGUGGAAUUCUCGGGUGCCAA	1.26
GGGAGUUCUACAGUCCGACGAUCUACAAAUGAUUAUUCCGACAGUGUGUCGACAUAAACUUUUACAACUGCACAGCAGCCAAAAAAAGAAAAAAAAAAGAAAAAAAACUUUAACUGGAUGGACGUUGUUAGGGUGGAAUUCUCGGGUGCCAA	0.384
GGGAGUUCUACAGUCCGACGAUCGUUAAGUAUCUGAAGGGAGGGUAGUGUAGAUAGCAAAUGACAGAGACAGUACACACCUAGUGUAUUGUCACUGAAGUCUUAGGUUUAACUUUGACAUCACAGGUCCCUUCUGGAAUUCUCGGGUGCCAA	0.313
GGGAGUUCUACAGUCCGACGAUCAACGAUGAUUGAAUGGGAAAAAGAGACUACAAAAUUUGUCGUAGGAUGUAUACAGACUUAUUUUCUUUAUUACAGUAUUAUAAGAAAACAUAUGUAUUUGUAAAAAUGGUUGGAAUUCUCGGGUGCCAA	0.981
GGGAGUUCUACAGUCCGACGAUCUUUUUGUUUGUUUGUUUUUUGUUUUUGUUUUUUGUUGUUUCCAAAAAUAAAAGAUGAGUUAUUUCACACGUACCAGAAGAGUCCCACAGGGUCUCGUCAGUUCUUUGACUUGGAAUUCUCGGGUGCCAA	0.698
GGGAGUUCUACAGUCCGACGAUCGAGUUCCAGCUUUGACAGCCUGAUGACCUCCAUUUUCAUAUGAAUGAUGCCUGCACCCCCACACCUCUGACUCAUCCUAUGGGUGUUCCAAGGCACCCAAUGCUCCACCCUGGAAUUCUCGGGUGCCAA	0.826
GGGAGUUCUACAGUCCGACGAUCUGCAUAGUGUUCACUUUUUAUAGCUGUCCUUUAUUCUAAACAGUAAAGUGGUUUUAUUUCUAUCACAUACCUGCUGUCUCUUGCCUUCUUGUGUCCUGGCUUGGGAGGUUUGGAAUUCUCGGGUGCCAA	0.904
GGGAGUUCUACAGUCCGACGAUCUUUUUUUAAAGAUUUAUUUAUAUGAGUACACUGUGGCUGUCUCAGACACACCAGAAGAGGGCAUCAGAUCCCAUUACAGAUGGUUGUGAGCCACCAUGUGGUUGCUUUAAUGGAAUUCUCGGGUGCCAA	2.28
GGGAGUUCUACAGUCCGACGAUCCGACAAGGACCCAGGUCUUCCUGCUGCUGCCAGGGAGAGCAGGGACAGUGCCGCGUGCGAGAUGAGCUCGAACACUGCCCGCCUUACUGCCGCCUACCCCGCCCGCCACGUGGAAUUCUCGGGUGCCAA	0.383
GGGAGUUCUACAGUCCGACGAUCUAAUCUUUUAAUGAUAUUUUCUUAUUAUAUUGCUACAGGCAACAUCAGUAGAAGCCUAUCUAGUUACACUAAACUAAAGAUCACAUUCACCAUUCUUACAGCCAAGUGGUUGGAAUUCUCGGGUGCCAA	0.421
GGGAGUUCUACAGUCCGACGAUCCCAACUUCCACAAAACAACUCAAGGCCUCCAAGUAUCAAGAUGUCCUGAAAUUUUUUUUUUUUUAGCAGAAUCUGAAAUUAGAUUUUGUACACUCCCUGGAAUGUAAUUGUGGAAUUCUCGGGUGCCAA	0.713

Some of these lines once more (series 1):
Oligonucleotide	E-score
GGTCTCTA	-0.0768
AACGAATG	-0.00097
AATCTTAA	0.13
CCCATTAG	-0.248
